Results from different studies.
Protocols differ between the studies behind these lines. Values joined by “and” are separate records of one study, mostly repeats; a detail may differ. ± marks the error that the study gave.
TF: TF (Homo sapiens, UniProt P02787)
ABCG2: Broad substrate specificity ATP-binding cassette transporter ABCG2 (ABCG2, Homo sapiens, UniProt Q9UNQ0)
Sequence of UniProt Q9UNQ0 (whole entry, looked up): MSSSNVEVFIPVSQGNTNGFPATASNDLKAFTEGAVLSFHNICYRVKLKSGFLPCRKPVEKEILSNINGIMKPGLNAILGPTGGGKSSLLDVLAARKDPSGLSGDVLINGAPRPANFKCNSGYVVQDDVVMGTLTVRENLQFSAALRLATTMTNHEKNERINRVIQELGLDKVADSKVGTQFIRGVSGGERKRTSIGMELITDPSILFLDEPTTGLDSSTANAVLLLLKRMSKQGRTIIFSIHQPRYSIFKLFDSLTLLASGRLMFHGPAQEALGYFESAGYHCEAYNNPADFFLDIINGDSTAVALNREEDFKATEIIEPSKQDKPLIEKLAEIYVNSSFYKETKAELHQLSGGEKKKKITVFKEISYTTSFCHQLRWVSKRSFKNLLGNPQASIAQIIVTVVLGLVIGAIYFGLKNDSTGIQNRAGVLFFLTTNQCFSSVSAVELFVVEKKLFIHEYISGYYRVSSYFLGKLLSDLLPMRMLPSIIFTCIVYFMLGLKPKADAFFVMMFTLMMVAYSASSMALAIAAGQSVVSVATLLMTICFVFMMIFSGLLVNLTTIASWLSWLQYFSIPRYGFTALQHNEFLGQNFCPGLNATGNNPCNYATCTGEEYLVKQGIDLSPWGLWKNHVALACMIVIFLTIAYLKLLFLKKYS
SLCO1B3: Solute carrier organic anion transporter family member 1B3 (SLCO1B3, Homo sapiens, UniProt Q9NPD5)
Sequence of UniProt Q9NPD5 (whole entry, looked up): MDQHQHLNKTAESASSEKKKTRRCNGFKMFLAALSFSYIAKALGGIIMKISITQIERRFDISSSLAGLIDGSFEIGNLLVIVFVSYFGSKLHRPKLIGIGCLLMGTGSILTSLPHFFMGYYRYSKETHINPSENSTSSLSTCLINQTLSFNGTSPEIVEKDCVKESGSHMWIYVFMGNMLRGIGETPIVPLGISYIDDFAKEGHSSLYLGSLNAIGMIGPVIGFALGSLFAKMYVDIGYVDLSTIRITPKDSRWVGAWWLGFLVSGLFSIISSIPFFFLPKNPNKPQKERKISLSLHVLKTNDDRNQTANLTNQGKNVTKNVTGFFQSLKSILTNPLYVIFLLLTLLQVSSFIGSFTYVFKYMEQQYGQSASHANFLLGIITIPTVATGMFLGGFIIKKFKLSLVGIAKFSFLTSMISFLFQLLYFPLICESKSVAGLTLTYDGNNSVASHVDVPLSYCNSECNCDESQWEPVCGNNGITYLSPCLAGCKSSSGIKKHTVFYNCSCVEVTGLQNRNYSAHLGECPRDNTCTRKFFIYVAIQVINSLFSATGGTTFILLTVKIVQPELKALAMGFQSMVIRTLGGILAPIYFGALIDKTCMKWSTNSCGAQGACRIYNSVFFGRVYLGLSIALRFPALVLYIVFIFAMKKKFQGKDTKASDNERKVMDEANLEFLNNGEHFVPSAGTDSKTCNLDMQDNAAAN
Sequence of UniProt P08684 (whole entry, looked up): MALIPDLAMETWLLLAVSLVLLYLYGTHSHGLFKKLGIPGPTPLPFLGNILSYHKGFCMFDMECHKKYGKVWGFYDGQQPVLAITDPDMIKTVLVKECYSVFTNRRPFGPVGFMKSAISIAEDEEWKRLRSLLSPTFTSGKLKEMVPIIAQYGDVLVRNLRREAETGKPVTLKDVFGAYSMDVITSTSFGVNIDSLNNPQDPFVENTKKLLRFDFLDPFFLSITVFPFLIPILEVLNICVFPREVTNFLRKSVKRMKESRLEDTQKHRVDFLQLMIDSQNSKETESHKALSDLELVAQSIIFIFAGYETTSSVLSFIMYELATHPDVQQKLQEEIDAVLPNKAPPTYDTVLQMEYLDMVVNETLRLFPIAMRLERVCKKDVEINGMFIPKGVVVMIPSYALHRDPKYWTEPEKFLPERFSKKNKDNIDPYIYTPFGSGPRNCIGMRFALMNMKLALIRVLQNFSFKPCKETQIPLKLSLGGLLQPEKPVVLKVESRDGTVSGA

SMILES	target or system	assay	system	conditions	scale	measurement	result
CN(CCNCc1cc(C(=O)[O-])ccc1[O-])CCNCc1cc(C(=O)[O-])ccc1[O-].[Cl-].[Fe+3].[K+].[K+]	TF	–	–	0.05 mM, pH 7.4, 37 °C, with: transferrin 0.10 mM	–	transchelation half-life	10 min
CC(C)(C)N1Cc2cc(-c3nc4ccccc4s3)cc(n2)CN(C(C)(C)C)Cc2cc(-c3nc4ccccc4s3)cc(n2)C1	Cu(II) complex	UV-vis titration	0.1 M NaCl	25 °C, bound water deprotonation	–	pKa	9.5
CNc1nc(N)nc2c1ncn2[C@@H]1O[C@H](CO)[C@@H](O)[C@@]1(C)F	ABCG2	bidirectional transport	MDCKII transfected with human BCRP	10 µM	–	Papp B to A	23.1 ± 1.3 ×10⁻⁶ cm/s
O=C(c1cccc(-c2ccc3ncnc(Nc4ccc(OCc5cccc(F)c5)c(Cl)c4)c3c2)c1)N1CCCCC1	Leishmania major	intracellular amastigote growth, luciferase	RAW264.7 macrophages	–	–	EC50	> 3 µM
CNc1nc(N)nc2c1ncn2[C@@H]1O[C@H](CO[P@](=O)(O)N[C@@H](C)C(=O)O)[C@@H](O)[C@@]1(C)F	ABCG2	bidirectional transport	MDCKII transfected with human BCRP	10 µM, with: Ko143 1 µM	–	efflux ratio	0.854 ± 0.123
Fc1cccc(COc2ccc(Nc3ncnc4ccc(-c5ccc(CN6CCOCC6)cc5)cc34)cc2Cl)c1	Leishmania major	intracellular amastigote growth, luciferase	RAW264.7 macrophages	–	–	EC50	5.9 µM
CN(CCNCc1ccncc1[O-])CCNCc1ccncc1[O-].[Cl-].[Fe+3]	TF	–	–	pH 7.4, 37 °C, 4-fold transferrin decrease	–	transchelation half-life	46 min
CC(C)C[C@H](NC(=O)[C@H](Cc1ccc(O)cc1)NC(=O)[C@@H](CCCNC(=N)N)NC(=O)[C@@H](CO)NC(=O)[C@H](Cc1ccccc1)NC(=O)[C@H](CC1CCCCC1)NC(=O)[C@H](CC(=O)O)NC(=O)CN1CCN(CC(=O)O)CCN(CC(=O)O)CCN(CC(=O)O)CC1)C(=O)N[C@@H](Cc1c[nH]c2ccccc12)C(=O)N[C@@H](CO)C(=O)O [copper-64 labelled]	–	–	human, brain	concentration not given, 24 h	–	activity concentration	31.2 Bq/mL and 36.8 Bq/mL and 42.3 Bq/mL and 37.6 Bq/mL and 28.6 Bq/mL and 69.7 Bq/mL
C[C@@]1(F)[C@H](O)[C@@H](CO)O[C@H]1n1cnc2c(=O)[nH]c(N)nc21	ABCG2	bidirectional transport	MDCKII transfected with human BCRP	10 µM, with: Ko143 1 µM	–	Papp B to A	2.19 ± 0.12 ×10⁻⁶ cm/s
CNC(=O)C1CCCN(C(=O)C2CC3CCC2N3C(=O)[C@@H]2C[C@@H](O)CN2C(=O)NCc2cccc(Cl)c2F)C1 (mixture of isomers)	Cytochrome P450 2C9 (CYP2C9, Homo sapiens, UniProt P11712)	preincubation with NADPH	human	1.85 µM	baseline: negative control	remaining activity	93.6% and 109% and 98.7%
c1ccc(CN2Cc3cccc(n3)CN(Cc3ccccn3)Cc3cccc(n3)C2)nc1	Mn2+	potentiometric titration	–	pH 7.4, ligand and Mn2+ 10 µM	–	pMn	7.73
CN(O)C(=O)CCC(=O)NCCCN(CCCCN(CCCNC(=O)CCC(=O)N(C)O)C(=O)CCC(=O)N(C)O)C(=O)CCC(=O)N(C)O.[89Zr]	TF	transchelation challenge	–	concentration not given, 3 days, 37 °C, with: apo-transferrin 10 equiv	–	transferrin binding	12.1 ± 1.6%
C[n+]1ccc(/C=N/NC(=O)N/N=C/c2cc[n+](C)c3ccccc23)c2ccccc21	hp2 hairpin duplex DNA	FRET melting	–	1 µM	–	ΔTm	1.4 ± 0.6 °C
O=C(O)c1cccc(CN2Cc3cccc(n3)CN(Cc3cccc(C(=O)O)n3)Cc3cccc(n3)C2)n1	Mn2+	potentiometric titration	0.16 M NaCl	25 °C	–	log stability constant, hydroxo complex	9.63
CC(C)(C)N1Cc2cccc(n2)CN(C(C)(C)C)Cc2cc(-c3nc4ccccc4s3)cc(n2)C1	Cu(II) complex	UV-vis titration	0.1 M NaCl	25 °C, bound water deprotonation	–	pKa	10
O=C(c1ccc(OCCN2CCCCC2)cc1)c1c(-c2ccc(O[C@@H]3O[C@H](C(=O)O)[C@@H](O)[C@H](O)[C@H]3O)cc2)sc2cc(O)ccc12	SLCO1B3	transporter uptake, substrate	HEK293	pH 7.4	–	Km	4.13 µM
C=CC(=O)Nc1cc(Nc2nccc(-c3cn(C)c4ccccc34)n2)c(OCC(F)(F)F)nc1N(C)CCN(C)C	Cytochrome P450 3A4 (CYP3A4, Homo sapiens, UniProt P08684)	substrate	–	3 µM, 60 min, 3A4 isoform, liver abundance-normalized	–	contribution to substrate depletion	78.4%
O=C(c1ccc(OCCN2CCCCC2)cc1)c1c(-c2ccc(O)cc2)sc2cc(O[C@@H]3O[C@H](C(=O)O)[C@@H](O)[C@H](O)[C@H]3O)ccc12	SLCO1B3	transporter uptake, substrate	HEK293	pH 7.4	–	Km	11.7 µM
O=C(N/N=C/c1cc[n+](CC2CC2)c2ccccc12)c1cccc(C(=O)N/N=C/c2cc[n+](CC3CC3)c3ccccc23)n1	hp2 hairpin duplex DNA	FRET melting	–	1 µM, with: ds26 10 µM	–	ΔTm	1.4 ± 0.3 °C

Some of these lines once more:
SMILES	target or system	assay	system	conditions	scale	measurement	result
CC(C)C[C@H](NC(=O)[C@H](Cc1ccc(O)cc1)NC(=O)[C@@H](CCCNC(=N)N)NC(=O)[C@@H](CO)NC(=O)[C@H](Cc1ccccc1)NC(=O)[C@H](CC1CCCCC1)NC(=O)[C@H](CC(=O)O)NC(=O)CN1CCN(CC(=O)O)CCN(CC(=O)O)CCN(CC(=O)O)CC1)C(=O)N[C@@H](Cc1c[nH]c2ccccc12)C(=O)N[C@@H](CO)C(=O)O [copper-64 labelled]	–	–	human, brain	concentration not given, 24 h	–	activity concentration	31.2 Bq/mL and 36.8 Bq/mL and 42.3 Bq/mL and 37.6 Bq/mL and 28.6 Bq/mL and 69.7 Bq/mL
C[C@@]1(F)[C@H](O)[C@@H](CO)O[C@H]1n1cnc2c(=O)[nH]c(N)nc21	ABCG2	bidirectional transport	MDCKII transfected with human BCRP	10 µM, with: Ko143 1 µM	–	Papp B to A	2.19 ± 0.12 ×10⁻⁶ cm/s
CNC(=O)C1CCCN(C(=O)C2CC3CCC2N3C(=O)[C@@H]2C[C@@H](O)CN2C(=O)NCc2cccc(Cl)c2F)C1 (mixture of isomers)	Cytochrome P450 2C9 (CYP2C9, Homo sapiens, UniProt P11712)	preincubation with NADPH	human	1.85 µM	baseline: negative control	remaining activity	93.6% and 109% and 98.7%
